Published values from different studies.
Numbered parts are unrelated; each lists some results of a single study.

Sample 1 — method: protein-binding microarray; form: double-stranded DNA, one strand shown; sample: in vitro; tested at: 2200 nM top; notes: 60-bp whole probe; added: salmon DNA 0.4 mg/ml; reference: random background probes; reading: higher = stronger binding
Target: Interferon regulatory factor 7, full length, phosphomimetic (IRF7, Homo sapiens, UniProt Q92985, residues 1-503, S471D/S472D/S475D/S476D/S477D/S483D/S484D/S487D)
UniProt Q92985, sequence (whole entry, unmodified, looked up): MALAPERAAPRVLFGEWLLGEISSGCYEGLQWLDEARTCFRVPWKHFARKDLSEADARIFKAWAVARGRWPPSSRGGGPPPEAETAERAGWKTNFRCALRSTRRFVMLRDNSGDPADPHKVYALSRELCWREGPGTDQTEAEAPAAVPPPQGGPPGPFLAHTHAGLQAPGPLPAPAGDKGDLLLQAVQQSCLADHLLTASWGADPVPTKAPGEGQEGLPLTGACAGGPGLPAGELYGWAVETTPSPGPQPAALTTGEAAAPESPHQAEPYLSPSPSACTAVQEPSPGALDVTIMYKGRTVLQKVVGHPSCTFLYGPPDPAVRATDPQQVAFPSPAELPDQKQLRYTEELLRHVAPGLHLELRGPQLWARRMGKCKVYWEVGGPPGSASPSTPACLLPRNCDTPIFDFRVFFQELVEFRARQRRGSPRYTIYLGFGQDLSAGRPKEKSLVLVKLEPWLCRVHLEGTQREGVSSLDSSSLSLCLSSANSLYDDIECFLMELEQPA
| Sequence | fitted relative affinity |
| --- | --- |
| GCCTAGCACTATAGCTGATACATATAGCCGTGCTAGGTCTTGATTCGCTTGACGCTGCTG | -0.266 z-score |
| GCCTAGCACGACCTCGTCTCTATCAAAAAGTGCTAGGTCTTGATTCGCTTGACGCTGCTG | 0.491 z-score |
| GCCTAGCACTCATCTCTCTATTCAGAACTGTGCTAGGTCTTGATTCGCTTGACGCTGCTG | 1.39 z-score |

Sample 2 — method: protein binding microarray; form: double-stranded DNA, one strand shown; sample: in vitro; tested at: not given; reference: not given; reading: higher = stronger binding
Target: Histone acetyltransferase KAT6A, winged helix 1, GST fusion (KAT6A, Homo sapiens, UniProt Q92794, residues 1-85)
Notes: 8-mer, flanks averaged, mean of 2 arrays, mostly near background
Construct (chain): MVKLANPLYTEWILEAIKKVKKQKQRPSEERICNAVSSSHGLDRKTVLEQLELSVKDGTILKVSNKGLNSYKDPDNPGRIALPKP
| Sequence | E-score |
| --- | --- |
| ACGCCCTA | 0.0664 |
| ATCTCTAC | -0.171 |
| CAGCGTTC | 0.0468 |

Sample 3 — method: aptamer microarray, sandwich; form: DNA with 2'F-ANA; sample: in vitro; tested at: 200 nM; added: Cy3 exosite-II aptamer, 400 nM; reading: higher = stronger binding
Target: Prothrombin, mature alpha-thrombin (F2, Homo sapiens, UniProt P00734)
Notes: whole 15-mer aptamer, many near background
| Sequence | mean fluorescence intensity [a.u.] |
| --- | --- |
| GGTTGGTGTGGTTGG (2'F-ANA at 3 6 7 8 9 10 13) | 493 |
| GGTTGGTGTGGTTGG (2'F-ANA at 3 6 9 12 14) | 645 |
| GGTTGGTGTGGTTGG (2'F-ANA at 1 3 4 5 7 10 11 12 14) | 44.3 |

Further values, each from its own experiment
| Molecule | target | assay | system | setting | scale | quantity | value |
| --- | --- | --- | --- | --- | --- | --- | --- |
| PhoQ, residues 284 288 289 292 302 303 TYGVAM | PhoP, residues 12 14 15 18 19 NMSFL (Escherichia coli, UniProt P23836) | Sort-seq, item: YFP reporter | E. coli | PhoQ-PhoP variant library, added: 10 µM Mg2+ | reference: high Mg2+ state, higher = stronger signaling | fold induction | 4.15 |

Repeated from above (sample 2):
| Sequence | E-score |
| --- | --- |
| ACGCCCTA | 0.0664 |
| CAGCGTTC | 0.0468 |
